# Experimental data from different studies.
# Each line is one published result; not all experiments were run side by side. ± marks the error that the study gave.
SMILES,organism,test,test system,setting,scale,quantity,value
O=C1CC(c2ccc(O)cc2)Oc2cc(O)cc([O][Ga+][O]c3cc(O)cc4c3C(=O)CC(c3ccc(O)cc3)O4)c21 (stereo not shown),Pseudomonas aeruginosa,,rabbit erythrocytes,0.08 µM,,remaining haemolytic activity,5%
CC[C@H](C)[C@H](NC(=O)[C@H](CCCN)NC(=O)[C@H](CC(N)=O)NC(=O)[C@H](CC(C)C)NC(=O)[C@H](Cc1ccccc1)NC(=O)[C@H](CCCN)NC(=O)[C@H](CCCCNC(=N)N)NC(=O)[C@H](CC(C)C)NC(=O)[C@H](CC(C)C)NC(=O)[C@H](CCCN)NC(=O)[C@H](CCCCNC(=N)N)NC(=O)[C@H](CC(C)C)NC(=O)CNC(C)=O)C(=O)N[C@@H](CCCN)C(=O)N[C@@H](CCCCNC(=N)N)C(N)=O,Gram-negative bacteria,,,,,geometric mean MIC,6.25 µM
CN(C)c1cc(CN2CCc3ccccc3C2)c(O)c2c1C[C@H]1C[C@H]3[C@H](N(C)C)C(O)=C(C(N)=O)C(=O)[C@@]3(O)C(O)=C1C2=O,Streptococcus pneumoniae,"microbial growth, broth dilution",,,,MIC,0.125 µg/mL
COc1ccc(C2OC(=O)c3ccc(-c4ccccc4)c(O)c32)c(OC)c1OC (stereo not shown),Naegleria fowleri,"parasite growth, resazurin",ATCC30808,48 h,,IC50,17.4 µM
Nc1ncnc2c1c(-c1ccc(F)cc1)cn2[C@H]1C[C@H](O)[C@@H](CO)O1,Trichomonas vaginalis,resorufin,"G3, metronidazole-sensitive","24 h + 2 h, 2% O2",,EC50,0.8 ± 0.086 µM
Brc1ccc(-c2c[nH]c(-c3ccccn3)n2)cc1,Schistosoma mansoni,,female worms,25 µM,,worm killing,0%
Nc1ccn(C[C@@H](CO)OCP(=O)(O)OCCCS(=O)(=O)CCCCCCCCCCC2CCC2)c(=O)n1,JC polyomavirus,qPCR,"COS-7, MAD-4",,reference: CC50 over EC50,selectivity index,13
CN(C)Cc1cc(N(C)C)c2c(c1O)C(=O)C1=C(O)[C@]3(O)C(=O)C(C(N)=O)=C(O)[C@@H](N(C)C)[C@@H]3C[C@@H]1C2,Streptococcus pneumoniae,"microbial growth, broth dilution",,,,MIC,0.25 µg/mL
Cc1ccc2nc(-c3ccccc3)c(CN3CCN(c4ccccc4)CC3)n2c1,Trypanosoma cruzi,,"3T3 host cells, Tulahuen beta-galactosidase",6 days,,EC50,5.2 µM
CC[C@H](C)[C@H](N)C(=O)NCC(=O)N1CCC[C@H]1C(=O)N[C@@H](CC(C)C)C(=O)N[C@H](C(=O)N[C@H](C(=O)N1CCC[C@H]1C(=O)N[C@H](C(=O)N[C@@H](C)C(=O)N[C@@H](C)C(=O)N[C@H](C(=O)N[C@@H](CC(C)C)C(N)=O)[C@@H](C)CC)C(C)C)[C@@H](C)CC)C(C)C,Gram-negative bacteria,,,concentration not given,,antibacterial activity,inactive
CCCn1ccc([C@H](C)[C@](O)(Cn2cnnn2)c2ccc(F)cc2F)n1,Candida tropicalis,"growth, broth microdilution",2718,"24 h, 30 °C, ≥50% inhibition",,MIC,0.5 µg/mL
CN[C@H](CC(C)C)C(=O)N[C@H]1C(=O)N[C@@H](CC(N)=O)C(=O)N[C@H]2C(=O)N[C@H]3C(=O)N[C@H](C(=O)N[C@H](C(=O)O)c4cc(O)cc(O)c4-c4cc3ccc4O)[C@H](O)c3ccc(c(Cl)c3)Oc3cc2cc(c3O[C@@H]2O[C@H](CO)[C@@H](O)[C@H](O)[C@H]2O[C@H]2C[C@](C)(NCc3ccc(C(=O)OCCCCCCN(Cc4ccccn4)Cc4ccccn4)cc3)[C@H](O)[C@H](C)O2)Oc2ccc(cc2Cl)[C@H]1O,Bacillus subtilis,"protein synthesis, refers to: YpuA",168,"concentration not given, 10 min, at peak effective concentration",reference: untreated,regulation factor,6.7 ± 1.95
CN(C)c1cc(CNCC2CCCCC2)c(O)c2c1C[C@H]1C[C@H]3[C@H](N(C)C)C(O)=C(C(N)=O)C(=O)[C@@]3(O)C(O)=C1C2=O,Streptococcus pneumoniae,,"ATCC 700905, Tet M ribosome protection",,,MIC,< 0.06 µg/mL
C=C(C)[C@@H]1CC[C@]2(C(=O)N3CCN(C)CC3)CC[C@]3(C)[C@H](CC[C@@H]4[C@@]5(C)CCCNC(C)(C)[C@@H]5CC[C@]43C)[C@@H]12,Human cytomegalovirus,cytopathic effect,"HFF, AD169",concentration not given,,antiviral activity,inactive
CCOC(=O)c1c(-c2ccc(C)cc2)oc2nc(N3CC[C@H](F)C3)ccc12,Trypanosoma cruzi,,"3T3 host cells, Tulahuen beta-galactosidase",6 days,,EC50,10.9 µM
C[C@@H](c1ccn(Cc2cccc(C(F)(F)F)c2)n1)[C@](O)(Cn1cnnn1)c1ccc(F)cc1F,Candida tropicalis,"growth, broth microdilution",2718,"24 h, 30 °C, ≥50% inhibition",,MIC,< 0.008 µg/mL

# Some of these lines once more:
SMILES,organism,test,test system,setting,scale,quantity,value
CN(C)c1cc(CN2CCc3ccccc3C2)c(O)c2c1C[C@H]1C[C@H]3[C@H](N(C)C)C(O)=C(C(N)=O)C(=O)[C@@]3(O)C(O)=C1C2=O,Streptococcus pneumoniae,"microbial growth, broth dilution",,,,MIC,0.125 µg/mL
